Experimental data of several laboratories.
Every numbered part comes from another study and shows a few of its results, in no order. Changes are numbered by the printed parent chain.

Set 1 — technique: aptamer microarray, sandwich; form: DNA with 2'F-ANA; sample: in vitro; concentration: 200 nM; with: Cy3 exosite-II aptamer, 400 nM; direction: higher = stronger binding; sequence: GGTTGGTGTGGTTGG
Target: Prothrombin, mature alpha-thrombin (F2, Homo sapiens, UniProt P00734)
Notes: whole 15-mer aptamer, many near background
`2'F-ANA at 2 3 4 7 9 12 14`: “mean fluorescence intensity” 344 a.u.
For `2'F-ANA at 1 2 5 6 7 12 13`, “mean fluorescence intensity” read 79.9 a.u.
`2'F-ANA at 5 6 7 9 11 13 14 15` — result for “mean fluorescence intensity”: 48.9 a.u.
For `2'F-ANA at 1 3 4 6 7 8 9 10 11 12 14`, “mean fluorescence intensity” read 56.8 a.u.
`2'F-ANA at 2 5 6 7 8 9 12 14 15` — result for “mean fluorescence intensity”: 52.3 a.u.
For `2'F-ANA at 3 4 5 8 9 12 13`, “mean fluorescence intensity” read 122 a.u.
`2'F-ANA at 1 8 10 14 15` — result for “mean fluorescence intensity”: 53.1 a.u.
`2'F-ANA at 1 3 4 5 6 8 12 13 15` — result for “mean fluorescence intensity”: 81.2 a.u.

Set 2 — technique: protein-binding microarray; form: double-stranded DNA, one strand shown; sample: in vitro; concentration: 250 nM; notes: 60-bp whole probe; with: salmon DNA 0.4 mg/ml; relative to: random background probes; direction: higher = stronger binding; constant ends, left off below: GCCTAGCAC … GTCTTGATTCGCTTGACGCTGCTG
Target: Interferon regulatory factor 7, full length, phosphomimetic (IRF7, Homo sapiens, UniProt Q92985, residues 1-503, S101K/S471D/S472D/S475D/S476D/S477D/S483D/S484D/S487D)
Sequence of UniProt Q92985 (whole entry, unmodified, looked up): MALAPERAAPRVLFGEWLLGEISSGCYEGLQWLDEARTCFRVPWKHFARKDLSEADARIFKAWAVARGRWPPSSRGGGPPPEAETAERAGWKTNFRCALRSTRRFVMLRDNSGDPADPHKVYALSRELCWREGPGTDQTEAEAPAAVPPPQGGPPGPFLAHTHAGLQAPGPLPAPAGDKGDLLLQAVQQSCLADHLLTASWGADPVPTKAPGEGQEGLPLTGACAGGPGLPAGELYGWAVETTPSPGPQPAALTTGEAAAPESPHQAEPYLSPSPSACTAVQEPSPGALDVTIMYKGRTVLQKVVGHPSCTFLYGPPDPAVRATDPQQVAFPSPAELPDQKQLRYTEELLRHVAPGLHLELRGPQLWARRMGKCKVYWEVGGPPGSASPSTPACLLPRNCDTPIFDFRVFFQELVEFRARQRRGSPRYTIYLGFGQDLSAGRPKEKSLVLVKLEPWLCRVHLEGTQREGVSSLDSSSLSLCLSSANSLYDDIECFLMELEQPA
`GACGGTAGCCTTATCCTGACGTGCTAG` gave a log fluorescence of -0.972 z-score.
`TTAGATATCAGTCTCGATTAGTGCTAG` gave a log fluorescence of 1.61 z-score.
`TCAACACTAATTTTTACACTGTGCTAG` has a log fluorescence of 0.279 z-score.
For `TTAGGTCTCGGTTTTGGTTAGTGCTAG`, the log fluorescence was 5.8 z-score.
`GACGGACTGGACTATCGGGCCGTGCTA` has a log fluorescence of -0.64 z-score.
`TTAGGTTTCGGTTTCGGGTAGTGCTAG` gave a log fluorescence of 14.4 z-score.
With `TTAGGTCTCGCTCTCGGTTAGTGCTAG` the log fluorescence was 1.14 z-score.
The log fluorescence of `GACGGAGTGCTTCTCCTGACGTGCTAG` is reported as -0.674 z-score.
`TTAGAACTGAGACTGGATTTGTGCTAG` gave a log fluorescence of -0.335 z-score.

Set 3 — technique: DHFR PCA, deep sequencing; sample: yeast; with: (+)-ABA 200 µM; relative to: wild-type fitted maximum; direction: higher = stronger binding
Target: ABI1, truncated, D143A, DHFR fusion (Arabidopsis thaliana)
Notes: methotrexate growth selection, single substitutions
Parent: PYL1, truncated, DHFR fusion (Arabidopsis thaliana); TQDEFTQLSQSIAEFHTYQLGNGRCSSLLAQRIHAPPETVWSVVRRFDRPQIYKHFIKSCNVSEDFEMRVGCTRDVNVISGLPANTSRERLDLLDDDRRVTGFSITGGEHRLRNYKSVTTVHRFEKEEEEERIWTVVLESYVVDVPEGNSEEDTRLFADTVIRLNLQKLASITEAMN
For `V145W`, “relative binding score” read 18.1%.
`V136T` — result for “relative binding score”: 90.4%.
`E152R` — result for “relative binding score”: 89.7%.
For `W41E`, “relative binding score” read 3.91%.
For `T101I`, “relative binding score” read 106%.
For `C72M`, “relative binding score” read 99.4%.
`Q2P`: “relative binding score” 101%.

Other studies, line by line
`PhoQ, residues 284 288 289 292 302 303 ALAMYF` has a fold induction of 0.424 (PhoP, residues 12 14 15 18 19 MHTVL (Escherichia coli, UniProt P23836); Sort-seq, item: YFP reporter; E. coli; PhoQ-PhoP variant library, with: 10 µM Mg2+; relative to: high Mg2+ state, higher = stronger signaling).
